Results pooled from the literature.
Compare with care: the assays were run in different laboratories. ± gives the spread as reported.
DRD4: D(4) dopamine receptor (DRD4, Homo sapiens, UniProt P21917)
Sequence of UniProt P21917 (whole entry, looked up): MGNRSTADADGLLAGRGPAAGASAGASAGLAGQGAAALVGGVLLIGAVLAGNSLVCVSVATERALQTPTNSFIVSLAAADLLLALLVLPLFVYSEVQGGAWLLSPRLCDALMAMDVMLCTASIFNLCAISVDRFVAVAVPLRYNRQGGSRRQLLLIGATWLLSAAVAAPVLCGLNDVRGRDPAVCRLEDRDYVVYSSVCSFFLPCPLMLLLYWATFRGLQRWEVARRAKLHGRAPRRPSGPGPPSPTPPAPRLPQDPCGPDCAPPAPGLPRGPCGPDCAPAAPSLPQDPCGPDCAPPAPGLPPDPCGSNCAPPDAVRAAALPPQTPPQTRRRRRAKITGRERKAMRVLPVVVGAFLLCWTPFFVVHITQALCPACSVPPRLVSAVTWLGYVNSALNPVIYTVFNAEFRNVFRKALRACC
LCK/CRBN: LCK/CRBN (Homo sapiens, UniProt P06239+Q96SW2)
Sequence of UniProt P06239 (whole entry, looked up): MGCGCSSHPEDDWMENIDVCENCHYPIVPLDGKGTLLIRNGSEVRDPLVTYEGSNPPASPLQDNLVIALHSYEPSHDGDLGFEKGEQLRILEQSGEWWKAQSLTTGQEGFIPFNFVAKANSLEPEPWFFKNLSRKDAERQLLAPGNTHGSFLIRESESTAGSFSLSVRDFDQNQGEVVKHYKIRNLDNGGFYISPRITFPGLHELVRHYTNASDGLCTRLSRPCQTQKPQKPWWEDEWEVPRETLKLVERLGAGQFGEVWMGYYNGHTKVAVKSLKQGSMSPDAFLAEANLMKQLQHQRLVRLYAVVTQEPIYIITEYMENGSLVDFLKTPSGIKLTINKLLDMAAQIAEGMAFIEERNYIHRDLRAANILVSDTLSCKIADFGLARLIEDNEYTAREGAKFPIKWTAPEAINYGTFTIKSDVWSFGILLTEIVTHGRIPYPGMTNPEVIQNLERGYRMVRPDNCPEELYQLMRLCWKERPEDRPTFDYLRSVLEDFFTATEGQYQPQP
Sequence of UniProt Q96SW2 (whole entry, looked up): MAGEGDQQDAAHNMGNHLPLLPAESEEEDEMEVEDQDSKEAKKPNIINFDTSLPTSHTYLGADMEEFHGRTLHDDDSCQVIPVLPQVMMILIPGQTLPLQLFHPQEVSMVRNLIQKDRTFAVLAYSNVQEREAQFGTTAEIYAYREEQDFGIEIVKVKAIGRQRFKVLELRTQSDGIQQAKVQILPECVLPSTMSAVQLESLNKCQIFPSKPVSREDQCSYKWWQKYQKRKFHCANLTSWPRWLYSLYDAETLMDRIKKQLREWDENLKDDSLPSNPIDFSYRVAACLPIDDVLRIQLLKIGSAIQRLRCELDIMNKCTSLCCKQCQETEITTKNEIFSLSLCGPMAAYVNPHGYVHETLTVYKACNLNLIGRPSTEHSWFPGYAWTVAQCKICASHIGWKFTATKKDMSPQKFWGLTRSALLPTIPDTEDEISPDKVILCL
GSPT1: Eukaryotic peptide chain release factor GTP-binding subunit ERF3A (GSPT1, Homo sapiens, UniProt P15170)
Sequence of UniProt P15170 (whole entry, looked up): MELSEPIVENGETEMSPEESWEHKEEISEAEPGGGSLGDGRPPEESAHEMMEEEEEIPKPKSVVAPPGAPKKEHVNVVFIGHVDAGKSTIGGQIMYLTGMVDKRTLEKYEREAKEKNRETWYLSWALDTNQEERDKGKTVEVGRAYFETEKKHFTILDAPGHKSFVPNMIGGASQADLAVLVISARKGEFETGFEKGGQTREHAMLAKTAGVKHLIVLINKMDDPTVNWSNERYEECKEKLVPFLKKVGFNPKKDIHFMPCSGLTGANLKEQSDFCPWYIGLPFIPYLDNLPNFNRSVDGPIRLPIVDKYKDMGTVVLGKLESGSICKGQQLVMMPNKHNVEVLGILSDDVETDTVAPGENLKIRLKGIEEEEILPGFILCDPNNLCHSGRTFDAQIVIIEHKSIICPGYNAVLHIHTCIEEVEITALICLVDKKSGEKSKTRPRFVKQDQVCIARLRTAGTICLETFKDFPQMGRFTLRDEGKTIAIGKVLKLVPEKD
Sequence of UniProt Q07912 (whole entry, looked up): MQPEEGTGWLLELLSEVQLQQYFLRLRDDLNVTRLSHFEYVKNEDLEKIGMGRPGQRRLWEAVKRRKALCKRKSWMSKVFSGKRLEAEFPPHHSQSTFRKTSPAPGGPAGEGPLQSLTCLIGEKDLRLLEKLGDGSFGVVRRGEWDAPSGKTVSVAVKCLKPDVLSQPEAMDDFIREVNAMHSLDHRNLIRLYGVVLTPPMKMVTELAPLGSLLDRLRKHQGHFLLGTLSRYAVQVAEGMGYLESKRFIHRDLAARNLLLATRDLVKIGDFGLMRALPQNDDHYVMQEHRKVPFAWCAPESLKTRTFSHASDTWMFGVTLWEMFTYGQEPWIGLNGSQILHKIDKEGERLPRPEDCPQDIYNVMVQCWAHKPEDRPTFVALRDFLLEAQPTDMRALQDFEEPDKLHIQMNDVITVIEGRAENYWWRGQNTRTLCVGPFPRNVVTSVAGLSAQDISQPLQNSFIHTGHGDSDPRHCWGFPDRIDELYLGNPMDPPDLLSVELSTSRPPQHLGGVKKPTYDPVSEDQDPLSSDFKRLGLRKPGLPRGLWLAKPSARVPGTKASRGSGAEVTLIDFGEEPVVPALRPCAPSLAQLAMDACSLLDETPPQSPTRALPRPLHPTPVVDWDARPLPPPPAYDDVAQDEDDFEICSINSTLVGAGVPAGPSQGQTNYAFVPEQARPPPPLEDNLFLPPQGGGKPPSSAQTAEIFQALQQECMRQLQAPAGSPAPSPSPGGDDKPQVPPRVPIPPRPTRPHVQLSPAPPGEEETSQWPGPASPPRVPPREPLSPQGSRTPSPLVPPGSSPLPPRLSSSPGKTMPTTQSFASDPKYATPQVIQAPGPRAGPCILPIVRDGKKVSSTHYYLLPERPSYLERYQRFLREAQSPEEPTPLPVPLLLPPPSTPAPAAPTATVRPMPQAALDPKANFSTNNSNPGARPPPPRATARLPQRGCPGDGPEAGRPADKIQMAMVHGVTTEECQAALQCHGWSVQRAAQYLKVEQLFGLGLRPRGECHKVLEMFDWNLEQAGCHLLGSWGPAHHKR
Sequence of UniProt Q92547 (whole entry, unmodified, looked up): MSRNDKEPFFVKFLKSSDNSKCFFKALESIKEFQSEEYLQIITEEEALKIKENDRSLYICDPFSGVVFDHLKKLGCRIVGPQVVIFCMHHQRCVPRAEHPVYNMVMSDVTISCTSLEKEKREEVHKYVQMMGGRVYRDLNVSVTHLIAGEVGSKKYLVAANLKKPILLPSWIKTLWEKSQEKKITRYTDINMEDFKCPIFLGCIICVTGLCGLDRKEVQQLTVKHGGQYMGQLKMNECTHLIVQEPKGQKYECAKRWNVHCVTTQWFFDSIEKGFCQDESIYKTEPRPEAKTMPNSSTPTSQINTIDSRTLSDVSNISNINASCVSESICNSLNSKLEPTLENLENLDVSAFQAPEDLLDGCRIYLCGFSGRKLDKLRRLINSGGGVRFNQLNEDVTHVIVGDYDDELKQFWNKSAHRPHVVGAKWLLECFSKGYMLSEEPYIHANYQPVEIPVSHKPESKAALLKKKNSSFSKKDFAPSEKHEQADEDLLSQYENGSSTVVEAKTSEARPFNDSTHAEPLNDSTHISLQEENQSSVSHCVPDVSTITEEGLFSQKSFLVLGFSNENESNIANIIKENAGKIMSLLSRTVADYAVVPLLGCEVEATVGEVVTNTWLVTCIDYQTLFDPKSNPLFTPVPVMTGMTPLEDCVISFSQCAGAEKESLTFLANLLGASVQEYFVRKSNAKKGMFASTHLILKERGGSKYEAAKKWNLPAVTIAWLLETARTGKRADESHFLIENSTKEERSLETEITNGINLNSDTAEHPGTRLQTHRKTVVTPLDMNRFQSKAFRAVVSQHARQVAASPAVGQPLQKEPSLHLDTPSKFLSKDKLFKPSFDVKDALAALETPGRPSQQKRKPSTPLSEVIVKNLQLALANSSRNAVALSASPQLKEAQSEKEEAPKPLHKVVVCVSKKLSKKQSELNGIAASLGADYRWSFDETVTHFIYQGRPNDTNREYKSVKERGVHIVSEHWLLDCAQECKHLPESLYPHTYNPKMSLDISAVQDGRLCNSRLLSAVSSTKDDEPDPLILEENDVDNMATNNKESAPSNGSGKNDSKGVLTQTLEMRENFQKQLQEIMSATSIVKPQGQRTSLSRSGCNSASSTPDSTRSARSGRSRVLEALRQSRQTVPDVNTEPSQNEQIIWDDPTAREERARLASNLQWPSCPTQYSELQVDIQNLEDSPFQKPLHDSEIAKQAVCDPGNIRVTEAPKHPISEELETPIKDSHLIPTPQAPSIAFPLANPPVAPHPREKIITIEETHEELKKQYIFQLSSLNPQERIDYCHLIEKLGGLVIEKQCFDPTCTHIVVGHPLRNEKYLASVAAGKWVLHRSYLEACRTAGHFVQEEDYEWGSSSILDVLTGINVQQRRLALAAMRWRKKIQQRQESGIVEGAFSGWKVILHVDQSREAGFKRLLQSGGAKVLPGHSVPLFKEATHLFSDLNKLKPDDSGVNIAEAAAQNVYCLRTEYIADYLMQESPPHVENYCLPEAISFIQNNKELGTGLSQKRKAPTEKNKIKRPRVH
Sequence of UniProt P31749 (whole entry, looked up): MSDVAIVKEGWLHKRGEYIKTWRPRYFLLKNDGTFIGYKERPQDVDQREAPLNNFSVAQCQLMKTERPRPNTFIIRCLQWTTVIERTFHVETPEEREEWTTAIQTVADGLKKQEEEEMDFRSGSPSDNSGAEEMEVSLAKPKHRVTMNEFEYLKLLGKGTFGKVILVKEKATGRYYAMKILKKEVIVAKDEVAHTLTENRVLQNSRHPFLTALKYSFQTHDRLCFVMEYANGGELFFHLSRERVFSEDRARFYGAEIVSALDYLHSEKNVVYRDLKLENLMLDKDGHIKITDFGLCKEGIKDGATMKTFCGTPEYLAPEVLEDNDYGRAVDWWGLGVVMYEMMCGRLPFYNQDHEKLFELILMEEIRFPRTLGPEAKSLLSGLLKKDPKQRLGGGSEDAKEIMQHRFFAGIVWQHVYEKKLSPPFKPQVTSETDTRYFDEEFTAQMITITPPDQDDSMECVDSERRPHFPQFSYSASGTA
Sequence of UniProt P62942 (whole entry, unmodified, looked up): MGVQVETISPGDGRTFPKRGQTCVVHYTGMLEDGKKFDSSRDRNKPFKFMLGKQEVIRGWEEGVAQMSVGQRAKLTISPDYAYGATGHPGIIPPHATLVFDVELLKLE

| Structure (SMILES) | target | test | test system | conditions | measurement | value |
| --- | --- | --- | --- | --- | --- | --- |
| COc1ccc(CN2CC(COc3ccc(F)c(C)c3)CC(F)(F)C2)cc1F (stereo not shown) | DRD4 | binding, radioligand displacement | HEK293 cell membranes | Eurofins Discovery, together with: [3H]N-methylspiperone | Ki | 316 nM |
| CCOC(=O)[C@@](CC)(CCCSCCOCCOCCN)NC(=O)c1ccc(C2CC2)c(Cc2ccc(F)cc2)n1 | CNR1 (Homo sapiens, UniProt P21554) | ligand displacement, radioligand | – | cell membranes | Ki | 180 nM |
| CC[C@H](C(=O)N1CCCC[C@H]1C(=O)O[C@H](CCc1ccc(OC)c(OC)c1)c1ccccc1OCC(=O)NCCCCCCOc1cccc2c1C(=O)N(C1CCC(=O)NC1=O)C2=O)c1cc(OC)c(OC)c(OC)c1 (stereo partly shown) | FKBP1A (Homo sapiens, UniProt P62942, F37V) | luminescence | HEK293T stably expressing target | 6 h | DC50 | ~100 nM |
| CCN(CC)CC(=O)Nc1cccc(-n2cc(-c3ccc4ccc(-c5cn(-c6cccc(NC(=O)CN(CC)CC)c6)nn5)cc4c3)nn2)c1 | AKT1 (Homo sapiens, UniProt P31749) | enzyme activity, inhibitor | – | – | IC50 | > 10000 nM |
| Cc1nn(-c2cccc(N)c2)c(=O)c2cnc(Nc3ccc(N4CCNCC4)cc3)nc12 | SIK2 (Homo sapiens, UniProt Q9H0K1) | enzyme activity, inhibitor | – | – | IC50 | 331 nM |
| NCCCC[C@H](NC(=O)[C@H](C/C=C/C[C@H](NC(=O)[C@@H]1CCCN1)C(=O)N[C@@H](CCCCN)C(=O)NCCCN)NC(=O)[C@@H]1CCCN1)C(=O)NCCCN | (CUG)10 RNA | SPR | – | – | Kd | 423 nM |
| CCc1c(C(=O)Nc2ccc3c(c2)CN(C2CCC(=O)NC2=O)C3=O)[nH]c2c(CO)cccc12 (stereo not shown) | LCK/CRBN | degrader, HiBiT, item: LCK-HiBiT | KOPTK1 | 24 h | DC50 | 2.7 ± 0.6 nM |
| FC1(F)CCN(Cc2ncn3ccccc23)CC1COc1cccc(Cl)n1 (stereo not shown) | DRD4 | ligand displacement, radioligand | – | cell membranes | Ki | 1010 nM |
| CCc1c(C(=O)Nc2ccc3c(c2)CN(C2CCC(=O)NC2=O)C3=O)[nH]c2c(NC(C)=O)cccc12 (stereo not shown) | GSPT1 | protein level, degrader, luciferase | – | – | DC50 | > 10000 nM |
| Fc1ccc(OCC2CN(Cc3ncc4ccccn34)CCC2(F)F)cc1F (stereo not shown) | DRD4 | ligand displacement, radioligand | – | – | Ki | 135 nM |
| Cn1ccc2c(N3CCN(CCCCOc4ccc5c(c4)NC(=O)CC5)CC3)cccc21 | ADRA1A (Homo sapiens, UniProt P35348) | ligand displacement, radioligand | – | – | Ki | > 10000 nM |
| O=C(O)CC12CC3CC(CC(C3)C1)C2 | DNA topoisomerase 2-binding protein 1, BRCT7-8 domains; R1314A (TOPBP1, Homo sapiens, UniProt Q92547, R1314A) | NMR titration | – | not saturated | Kd | > 400000 nM |
| Fc1ccc(OCC2CN(Cc3cn4ccccc4n3)CCC2(F)F)cc1F (stereo not shown) | DRD4 | ligand displacement, radioligand | – | cell membranes | Ki | 46.8 nM |
| CCc1c(C(=O)Nc2ccc3c(c2)CN(C2CCC(=O)NC2=O)C3=O)[nH]c2c(CNC(C)=O)cccc12 (stereo not shown) | LCK/CRBN | degrader, HiBiT, item: LCK-HiBiT | KOPTK1 | 24 h | DC50 | 7.5 ± 1.6 nM |
| CCc1nc2cc3ccccc3cc2cc1C(=O)N[C@@H](CCCCN)C(=O)N[C@@H](C/C=C\C[C@H](NC(=O)[C@H](CCCCN)NC(=O)c1cc2cc3ccccc3cc2nc1CC)C(=O)N1CCC[C@H]1C(=O)NCCCN)C(=O)N1CCC[C@H]1C(=O)NCCCN | (CUG)10 RNA | SPR | – | – | Kd | 175 nM |
| Fc1cccc(OCC2CN(Cc3cn4nc(Cl)ccc4n3)CCC2(F)F)c1 (stereo not shown) | DRD4 | ligand displacement, radioligand | – | cell membranes | Ki | 5.5 nM |
| CCn1nc(Cl)c2c1-c1cnc(N)c(c1)O[C@H](C)c1cc(F)ccc1-c1nn(C)cc1C2 | TNK2 (Homo sapiens, UniProt Q07912) | enzyme activity, inhibitor, radiometric | – | – | IC50 | 170 nM |
| CNc1ncnc2c1ncn2C1OC(CO)C(O)C1O (stereo not shown) | ADORA2B (Homo sapiens, UniProt P29275) | G protein activation, agonist | – | – | EC50 | 39000 nM |
| Cc1c[nH]c2nccc(-c3ccc(C(=O)N[C@@H]4c5c(F)cc(C(F)F)cc5C[C@@H]4O)cn3)c12 | Non-receptor tyrosine-protein kinase TYK2, JH1 (TYK2, Homo sapiens, UniProt P29597) | binding, competition with immobilised ligand | – | – | Kd | 99.5 nM |
| Fc1ccc(OCC2CN(Cc3cn4ccccc4n3)CCC2(F)F)cc1 (stereo not shown) | DRD4 | ligand displacement, radioligand | – | cell membranes | Ki | 73 nM |
| CCc1c(C(=O)Nc2ccc3c(c2)CN(C2CCC(=O)NC2=O)C3=O)[nH]c2c(CN)cccc12 (stereo not shown) | GSPT1 | protein level, degrader, luciferase | – | – | DC50 | > 10000 nM |
| Cn1cnc2cc(CN3CCC(F)(F)C(COc4ccc(C#N)c(F)c4)C3)ccc21 (stereo not shown) | DRD4 | ligand displacement, radioligand | – | cell membranes | Ki | 40.4 nM |
| CCc1nc2cc3ccccc3cc2cc1C(=O)N1CCC[C@H]1C(=O)N[C@@H](C/C=C/C[C@H](NC(=O)[C@@H]1CCCN1C(=O)c1cc2cc3ccccc3cc2nc1CC)C(=O)N[C@@H](CCCCN)C(=O)NCCCN)C(=O)N[C@@H](CCCCN)C(=O)NCCCN | (CUG)10 RNA | SPR | – | – | Kd | 88 nM |
| Cn1ncc2cc(CN3CCC(F)(F)C(COc4cccc(F)c4)C3)ccc21 (stereo not shown) | DRD4 | ligand displacement, radioligand | – | cell membranes | Ki | 3.02 nM |
| CCc1nc2cc3ccccc3cc2cc1C(=O)N1CCC[C@H]1C(=O)N[C@@H](CCC/C=C/CCC[C@H](NC(=O)[C@@H]1CCCN1C(=O)c1cc2cc3ccccc3cc2nc1CC)C(=O)N[C@@H](CCCCN)C(=O)NCCCN)C(=O)N[C@@H](CCCCN)C(=O)NCCCN | (CUG)10 RNA | SPR | – | – | Kd | 29 nM |

Excerpt of the above:
| Structure (SMILES) | target | test | test system | conditions | measurement | value |
| --- | --- | --- | --- | --- | --- | --- |
| CCN(CC)CC(=O)Nc1cccc(-n2cc(-c3ccc4ccc(-c5cn(-c6cccc(NC(=O)CN(CC)CC)c6)nn5)cc4c3)nn2)c1 | AKT1 (Homo sapiens, UniProt P31749) | enzyme activity, inhibitor | – | – | IC50 | > 10000 nM |
| Cc1nn(-c2cccc(N)c2)c(=O)c2cnc(Nc3ccc(N4CCNCC4)cc3)nc12 | SIK2 (Homo sapiens, UniProt Q9H0K1) | enzyme activity, inhibitor | – | – | IC50 | 331 nM |
